Published values collected from several papers.
Parts stem from different laboratories: compare values within a part only. Substitutions count along the parent as printed.

Study 1
Target: Interferon regulatory factor 7, full length, phosphomimetic (IRF7, Homo sapiens, UniProt Q92985, residues 1-503, S101K/S471D/S472D/S475D/S476D/S477D/S483D/S484D/S487D)
Sequence of UniProt Q92985 (whole entry, unmodified, looked up): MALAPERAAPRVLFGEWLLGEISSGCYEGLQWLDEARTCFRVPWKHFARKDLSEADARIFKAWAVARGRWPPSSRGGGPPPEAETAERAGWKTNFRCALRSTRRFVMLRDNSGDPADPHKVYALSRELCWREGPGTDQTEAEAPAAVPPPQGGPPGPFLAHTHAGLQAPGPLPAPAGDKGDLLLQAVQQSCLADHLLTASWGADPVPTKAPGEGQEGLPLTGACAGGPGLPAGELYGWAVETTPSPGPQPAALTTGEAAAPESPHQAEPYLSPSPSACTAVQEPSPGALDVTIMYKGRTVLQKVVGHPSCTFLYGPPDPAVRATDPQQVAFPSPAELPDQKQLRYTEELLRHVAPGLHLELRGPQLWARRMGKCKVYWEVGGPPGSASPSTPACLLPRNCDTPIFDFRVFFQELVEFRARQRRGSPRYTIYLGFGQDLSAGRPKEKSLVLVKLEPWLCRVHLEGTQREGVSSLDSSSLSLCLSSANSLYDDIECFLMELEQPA
Method: protein-binding microarray
Form: double-stranded DNA, one strand shown
Matrix: in vitro
Concentration: 250 nM
Setting: 60-bp whole probe
With: salmon DNA 0.4 mg/ml
Reference: random background probes
Reading: higher = stronger binding
Shared flanks, not repeated: GCCTAGCAC … GTCTTGATTCGCTTGACGCTGCTG
Strand	log fluorescence
TCACTTTGCTCATTTTTCACTGTGCTA	1.52 z-score
ATTTTTTTATCAATCATTTTGTGCTAG	0.862 z-score
TCAGGTTTCGGGTATCGGTTAGTGCTA	8.02 z-score
GACGGACTGGACTATCGGGACGTGCTA	-0.647 z-score
GACGATTGCAGTATCGAGACGTGCTAG	-0.0344 z-score
GGTCTTTCCGATTAGTCCCCGTGCTAG	1.58 z-score
TTAGGACTGGGGAATGGGTTAGTGCTA	-0.249 z-score
ATATATGTATATATGTGTATGTGCTAG	0.581 z-score
TTTTTGGATGCTGGAAAAATGTGCTAG	0.642 z-score
AAGTTTCTCCTTTGTAAATAGTGCTAG	4.93 z-score
GTAGTAATCTTAAGGCTGTCGTGCTAG	-0.489 z-score
TCATTTTTTAGCTTCTCACTGTGCTAG	0.717 z-score
GACGGTATCGTCACTGGGGACGTGCTA	-0.415 z-score
TTAGGTATCCTTCCCCTTTAGTGCTAG	0.535 z-score
GACGAACTGAATATCGAGACGTGCTAG	0.136 z-score
TTAAATTTCAGTATCGATTAGTGCTAG	1.26 z-score
TAAGGTTCCGGTTTCGGTTAGTGCTAG	11.4 z-score
TCAAATTTTAATAACACACTGTGCTAG	0.149 z-score
CACGATTTCAGACTGGAGACGTGCTAG	0.267 z-score

Study 2
Target: RING finger protein unkempt homolog, zinc fingers 1-6, GST-SBP tag (UNK, Homo sapiens, UniProt Q9C0B0, residues 30-357)
Method: RNA Bind-n-Seq
Form: RNA
Matrix: in vitro
Concentration: not given
Setting: RNA with constant flanks, human-mouse chimeric sites, ends assumed
Reference: input RNA pool
Reading: higher = stronger binding
Target sequence (chain): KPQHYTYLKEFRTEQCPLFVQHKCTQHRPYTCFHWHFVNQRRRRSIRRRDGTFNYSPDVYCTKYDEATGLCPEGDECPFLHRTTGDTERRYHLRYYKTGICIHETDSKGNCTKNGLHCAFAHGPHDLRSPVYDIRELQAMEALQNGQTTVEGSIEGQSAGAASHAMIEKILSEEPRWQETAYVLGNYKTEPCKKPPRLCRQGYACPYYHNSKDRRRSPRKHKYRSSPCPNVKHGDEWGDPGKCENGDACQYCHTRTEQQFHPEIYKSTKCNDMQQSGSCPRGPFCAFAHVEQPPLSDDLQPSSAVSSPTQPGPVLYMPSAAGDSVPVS
Strand	bound/input enrichment [ratio]
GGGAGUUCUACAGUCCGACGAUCCACACACUCUUCUGCGGCACCCUCAUUUUGCAGGCCCGAGCCUACGUGGGACCGCACGUCCUGGCAGUGGUGACCCGCACAGGGUUCUGCACGGCAAAAGGGGGCCUGGUGAGCUCCAUCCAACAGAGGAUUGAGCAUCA	0.096
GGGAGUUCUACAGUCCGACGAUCCUGAGGAUACCACUGAAGAGACCUUAAAAGGAGUCAUUGAGGGCUCUGUUCGUGCAAGAAUAGUCACUGAUCGGGAAAACUGGGUCCCCAAAGGGUUUGGUUUUGUAGACUUUAAUAGUGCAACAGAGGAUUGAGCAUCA	0.857
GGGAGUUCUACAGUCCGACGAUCGCAGGAUCUUCUAAGUACCAGUGGGACAUUAUGAAAUCCCUUGGCCUCUCUGAUGACGACAUAGUGAAGUUUUCUGAAGCAGAGCACUGGCUUGAUUAUUUCCCACCACUGGCCGUUCAGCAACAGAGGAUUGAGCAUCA	0.161
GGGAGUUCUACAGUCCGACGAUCCACGUGUCUGCAGUACUUGAUGUGGACUACUCUCCCACUGGGAAGGAGUUUGUGUCUGCCAGCUUUGAUAAGUCUAUUCGAAUCUUUCCUGUGGACAAGAGCCGAAGCAGGGAAGUGUAUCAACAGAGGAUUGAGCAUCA	0.104
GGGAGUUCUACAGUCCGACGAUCCUCAUGGCUGCAGAAACAGGAAGUGGAAAAACUGGUGCAUUUAGUAUUCCCGUUAUCCAGAUAGUUUAUGAAACUCUGAAAGACCAACAGGAAGGAAAGAAAGGGAAAACAACUAUUAAACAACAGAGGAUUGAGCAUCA	0.858
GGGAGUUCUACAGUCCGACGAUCAAAGAGAAAGCUAAAACACUAAUAGAGAAGAGGAUUGGCAAAGAGAAUUUCAUAGAGAAACUAGGAUUUAUUAGCAAACAUGAGUUAUAUUCCAGAGCGUCUCAGAAACCCCAGCCAAACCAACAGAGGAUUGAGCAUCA	6.88
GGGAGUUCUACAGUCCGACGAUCACCAUUUUCGCGGUUCAGGCUUUGUGUGUAGUUCACUUACGGUAUUAAAUUAUUAUUGCCCUUAGUUUAUAAUAAGGAUUACAAUUGUUAAAGAGGUUACUGAAUGUUACUCUGAAACUUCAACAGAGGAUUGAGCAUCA	1.37
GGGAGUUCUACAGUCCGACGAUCCUUCGGAAAAAAAAAUUACCUUUUCUGACAGUGCUUUCCCUCCCAUAGGUCCAGGUUCAAGCUCAAAGAGCAAAGGCUUUGCACGGAGCUCAAACAUCUGAUGAAGAAAGAUUUCUGAGACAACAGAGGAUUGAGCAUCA	0.253
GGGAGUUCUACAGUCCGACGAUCGCGGCAGAAUCAUGGUGGACAUAAUGCACUUGCCCAGAGCGCGCGUCAACGCCAGCAUGUUACCACAGUAUAUCGACCGGCCCGUGUGCUUCGUGGGGAAGCUGGAAAAGAUUCAUCCCACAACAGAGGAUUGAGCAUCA	0.1
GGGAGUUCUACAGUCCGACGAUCAUCCCAAUUAUGGACACCGGUGAAAACCCAGAGGUUCCCUUCCCCCGGGACAUGAUUGACUUAGAGGCCAAUUUCGAGAAGAUUGAAAAUGAACUGAAGGAAAUCAACACAAACCAGGAACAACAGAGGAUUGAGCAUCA	0.212
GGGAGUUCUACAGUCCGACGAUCCAUGUAUCUGCAGUACUUGAUGUGGACUACUCUCCCACUGGGAAGGAGUUUGUGUCUGCCAGCUUUGAUAAGUCUAUUAGAAUCUUUCCUGUGGACAAGAGCCGAAGCAGGGAAGUGUAUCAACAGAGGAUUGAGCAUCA	0.437

Study 3
Target: CCND3, cyclin fold, Cln2 fusion (human)
Method: yeast growth competition, sequencing
Matrix: yeast
Setting: weak parent motif
Reference: not given
Reading: higher = stronger binding
Parent: ITGB3BP docking peptide (human); MPVKRSLKLDGLL; partner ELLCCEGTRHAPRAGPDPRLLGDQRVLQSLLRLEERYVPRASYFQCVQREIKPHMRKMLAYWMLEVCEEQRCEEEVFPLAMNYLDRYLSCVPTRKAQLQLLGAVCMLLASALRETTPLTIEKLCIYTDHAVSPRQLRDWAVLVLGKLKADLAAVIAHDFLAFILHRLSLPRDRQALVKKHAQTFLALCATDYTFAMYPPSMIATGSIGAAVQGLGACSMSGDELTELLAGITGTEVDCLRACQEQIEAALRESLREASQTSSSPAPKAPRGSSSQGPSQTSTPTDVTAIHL
Variant	normalised enrichment score
MPVKKSLKFDGLL [R5K L9F]	0.0815
MPVKRSLKLDGAL [L12A]	0.106
MPVKRSAKLDGLL [L7A]	0.206
MPVKRSLKLAGLL [D10A]	0.0691
MPAKRSLKLDGLL [V3A]	0.223
MPVKRSLALDGLL [K8A]	0.161
APVKRSLKLDGLL [M1A]	0.0453

Other studies, line by line
Substance	target	test	system	setting	scale	measurement	result
PhoQ, residues 284 288 289 292 302 303 SLCLSL	PhoP, residues 12 14 15 18 19 TQAIL (Escherichia coli, UniProt P23836)	Sort-seq, measured: YFP reporter	E. coli	PhoQ-PhoP variant library, with: 10 µM Mg2+	reference: high Mg2+ state, higher = stronger signaling	fold induction	1.41

For quick reference, copied from above (study 1):
Strand	log fluorescence
TCATTTTTTAGCTTCTCACTGTGCTAG	0.717 z-score
TTAGGACTGGGGAATGGGTTAGTGCTA	-0.249 z-score
TTAGGTATCCTTCCCCTTTAGTGCTAG	0.535 z-score
TCAAATTTTAATAACACACTGTGCTAG	0.149 z-score
CACGATTTCAGACTGGAGACGTGCTAG	0.267 z-score
